Measurements of several laboratories.
Parts stem from different laboratories: compare values within a part only.
Chain of UniProt Q96SB4 (whole entry, looked up): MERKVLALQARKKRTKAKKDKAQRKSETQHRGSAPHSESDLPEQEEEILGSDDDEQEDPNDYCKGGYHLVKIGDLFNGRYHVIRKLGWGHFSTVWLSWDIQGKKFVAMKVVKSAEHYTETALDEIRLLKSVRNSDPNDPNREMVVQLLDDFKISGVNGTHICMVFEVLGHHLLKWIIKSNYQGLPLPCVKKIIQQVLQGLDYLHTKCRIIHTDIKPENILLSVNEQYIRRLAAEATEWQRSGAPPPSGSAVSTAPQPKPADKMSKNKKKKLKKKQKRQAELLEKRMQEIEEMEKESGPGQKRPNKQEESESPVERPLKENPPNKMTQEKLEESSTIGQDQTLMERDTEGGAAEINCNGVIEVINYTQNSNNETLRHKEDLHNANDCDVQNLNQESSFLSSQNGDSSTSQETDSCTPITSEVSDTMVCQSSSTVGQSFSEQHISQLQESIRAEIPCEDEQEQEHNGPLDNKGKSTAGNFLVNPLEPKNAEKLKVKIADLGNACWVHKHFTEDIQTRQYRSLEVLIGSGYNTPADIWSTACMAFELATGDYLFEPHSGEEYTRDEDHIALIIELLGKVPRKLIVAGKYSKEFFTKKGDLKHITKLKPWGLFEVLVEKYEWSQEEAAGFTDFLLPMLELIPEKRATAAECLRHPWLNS

Set 1
Target: RING finger protein unkempt homolog, zinc fingers 1-6, GST-SBP tag (UNK, Homo sapiens, UniProt Q9C0B0, residues 30-357)
Chain of UniProt Q9C0B0 (30-357, looked up): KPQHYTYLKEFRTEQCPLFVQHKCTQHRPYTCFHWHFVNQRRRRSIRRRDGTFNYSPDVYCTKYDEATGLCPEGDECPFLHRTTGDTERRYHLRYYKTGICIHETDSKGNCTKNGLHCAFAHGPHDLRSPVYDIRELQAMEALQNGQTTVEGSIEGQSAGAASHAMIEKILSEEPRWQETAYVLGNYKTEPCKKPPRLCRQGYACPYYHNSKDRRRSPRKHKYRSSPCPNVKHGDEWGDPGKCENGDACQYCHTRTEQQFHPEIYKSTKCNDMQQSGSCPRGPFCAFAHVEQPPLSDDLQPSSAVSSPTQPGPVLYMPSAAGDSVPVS
Technique: RNA Bind-n-Seq
Form: RNA
Medium: in vitro
Concentration: not given
Setting: RNA with constant flanks, ends assumed
Baseline: input RNA pool
Reading: higher = stronger binding
| Strand | bound/input enrichment [ratio] |
| --- | --- |
| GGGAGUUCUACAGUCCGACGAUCCAAGCCAGUCCUGUUGUGAUUUGUCCAUCGAGUGUGUGUGUGUGUGUGUGUGACCAUCAGUUCCGCCCAGAGUGGACAGGGUCCAGGCAUACCCACCCUGGCCCAUGCUCCUCUAGGACACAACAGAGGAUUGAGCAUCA | 0.14 |
| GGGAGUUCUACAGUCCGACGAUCGUUUACUCUCAGAGCACAGCUCUUACUCAUAAGCAGUCUUAUUAUUCCAUUGCCAAAUGUGCCGCUGCCCUUACUCGAGCAUGCCCUAAAGAGGGACCAGCUGUAGUAGGUCAGUUUAUUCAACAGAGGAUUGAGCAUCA | 0.191 |
| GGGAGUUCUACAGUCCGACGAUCAUGACCCUUGGACAGCAGGACGUUUCCAAAGUCCUGCUGGGACCACUCUCACCCUACACGACCGAAUUUUUGCGGCAUCUGAAGAGCUUUUUCCAGGUUAUGUUUAAAGUUGAAACCAAGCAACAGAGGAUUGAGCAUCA | 0.231 |
| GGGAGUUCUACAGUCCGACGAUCUUUCCUUCUUUUGGAAGUGGAUUUCCUGCUUUUGAUACAGGCUUCACUCCAUUUGGGUCACCCGGUCAUGGGGGUCUCACUUCAUUUUCUUCAACGUCAUUUGGCGGCAGUGGAAUGGGCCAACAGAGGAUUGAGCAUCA | 0.172 |
| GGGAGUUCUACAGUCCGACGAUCCAUGUGUGUCUAUGUGUCUCUUGUUUUUCUUGCAUGUGUAUAUGUGUACUGCUUAUACACCUCCGUCUGUGGAGUUCAAAAGAAUCCAUUGUUUAACCUGGAUGGUUGUGAGUCAGUAUGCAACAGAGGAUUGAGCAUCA | 0.265 |
| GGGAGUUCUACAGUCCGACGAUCAUUGUAUAUUAUGAACAGCUGACUAAACAUAAUCACCACAGAAUAAGACAAUAUCAUAUAACCGAUUAAAAUGUUGUGCAUCCUUUUGUCUGGUUAAAAAUUUUUUAAAAAAACUUCAAUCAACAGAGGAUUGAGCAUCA | 0.901 |
| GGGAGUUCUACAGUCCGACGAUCAUGAUGAAGCUCUCAGAAGAAAACCGACACCUGAGAGAUGAAGGCCUAAGGCUCAGAAAGGCCGCACAUUCGGAUAAACCUGGAUCCACCUCAGCCGUGUCCUUCAGAGAUAAUGUCACCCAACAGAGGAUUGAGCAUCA | 0.148 |
| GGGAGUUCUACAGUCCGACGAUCGGUUUGGUGUUUGGUUUUUGUUUGUUUGUUUUACUUUUUAAAUACAACACGUACAGUUUCAUCCGCCCCAGGCCUUGUCAUCCUGUGUUCAUUCAAAUUGAGAUACAAUCUAAAAUUCAUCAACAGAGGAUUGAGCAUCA | 0.123 |

Set 2
Target: Myc proto-oncogene protein, bHLH-zipper, MAX partner unstated (MYC, Homo sapiens, UniProt P01106, residues 368-449)
Chain of UniProt P01106 (368-449, looked up): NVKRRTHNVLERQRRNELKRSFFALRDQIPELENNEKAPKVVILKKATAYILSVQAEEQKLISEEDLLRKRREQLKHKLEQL
Technique: protein-binding microarray
Form: double-stranded DNA, one strand shown
Medium: in vitro
Concentration: not given
Setting: k-mer, scored over probes, only values ≥0.25
Reading: higher = stronger binding
| Strand | E-score |
| --- | --- |
| CATGGTGC | 0.399 |
| CCGTGGTC | 0.253 |
| ATGCGTAC | 0.348 |
| AAGGCACG | 0.314 |
| ACGCACCC | 0.274 |
| CACGACGG | 0.268 |
| AGCCACAT | 0.283 |
| GCGTGGAA | 0.408 |

Set 3
Target: Interferon regulatory factor 7, full length, phosphomimetic (IRF7, Homo sapiens, UniProt Q92985, residues 1-503, S101K/S471D/S472D/S475D/S476D/S477D/S483D/S484D/S487D)
Technique: protein-binding microarray
Form: double-stranded DNA, one strand shown
Medium: in vitro
Concentration: 250 nM
Setting: 60-bp whole probe
With: salmon DNA 0.4 mg/ml
Baseline: random background probes
Reading: higher = stronger binding
Constant ends, left off below: GCCTAGCAC … GTCTTGATTCGCTTGACGCTGCTG
Target sequence (chain): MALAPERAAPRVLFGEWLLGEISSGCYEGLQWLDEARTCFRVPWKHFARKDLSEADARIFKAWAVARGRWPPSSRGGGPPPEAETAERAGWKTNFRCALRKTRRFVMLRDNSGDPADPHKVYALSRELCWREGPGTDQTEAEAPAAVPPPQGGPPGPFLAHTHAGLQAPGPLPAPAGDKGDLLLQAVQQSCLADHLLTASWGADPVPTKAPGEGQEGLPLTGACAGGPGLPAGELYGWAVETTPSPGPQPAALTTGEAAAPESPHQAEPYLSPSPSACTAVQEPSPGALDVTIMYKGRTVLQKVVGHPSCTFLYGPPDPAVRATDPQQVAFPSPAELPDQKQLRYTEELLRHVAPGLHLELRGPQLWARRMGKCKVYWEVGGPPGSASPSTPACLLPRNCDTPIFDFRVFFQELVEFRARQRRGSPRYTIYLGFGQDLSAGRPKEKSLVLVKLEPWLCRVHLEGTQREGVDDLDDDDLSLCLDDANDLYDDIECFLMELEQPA
| Strand | log fluorescence [z-score] |
| --- | --- |
| AACTGTCTGCCTTTCAATCCGTGCTAG | -0.31 |
| TCACCTCTCTGTCCCCCTTTGTGCTAG | 0.739 |
| TTAGGTTCCCTTTTCCTCTAGTGCTAG | 3.97 |
| TTAGATATCGGGACTAGATTAGTGCTA | 0.206 |
| CTGCTGATCGGTTGGGGTGGGTGCTAG | -0.184 |
| AACAGTTCATGTTTTGGAAAGTGCTAG | 0.714 |
| TTAGATATGAGTTTCGATTAGTGCTAG | 7.96 |
| CTAGATATCGGGACTGGATTAGTGCTA | 0.705 |

Single results of other studies
| SMILES | target | effect on | technique | concentration | measurement | value |
| --- | --- | --- | --- | --- | --- | --- |
| CN(C)CC#Cc1ccc(OCCCc2sc(N3CCc4cccc(C(=O)Nc5nc6ccccc6s5)c4C3)nc2C(=O)O)c(F)c1 | SRSF protein kinase 1 (SRPK1, Homo sapiens, UniProt Q96SB4) | cell-free assay | competition with immobilised ligand | 1 µM | remaining binding | 100% |

Excerpt of the above (set 3):
| Strand | log fluorescence [z-score] |
| --- | --- |
| CTGCTGATCGGTTGGGGTGGGTGCTAG | -0.184 |
| AACAGTTCATGTTTTGGAAAGTGCTAG | 0.714 |
| CTAGATATCGGGACTGGATTAGTGCTA | 0.705 |
